{"data": "Experimental data pooled from the literature", "note": "Lines come from different studies, so protocols differ."}
{"SMILES": "CS(C)(=O)=Nc1ccc(-c2ccc(-c3nc4cc(O[C@@H]5CO[C@H]6[C@@H]5OC[C@H]6O)[nH]c4cc3F)cc2)cc1", "system": "female C57BL/6 mouse, plasma", "setting": "oral, 10 mg/kg", "Tmax [min]": 120}
{"SMILES": "CCCCCCCC(=O)NC[C@H](NC(=O)[C@H](CO)NC(=O)CN)C(=O)N[C@@H](Cc1ccccc1)C(=O)N[C@@H](CC(C)C)C(=O)N[C@@H](CO)C(=O)N1CCC[C@H]1C(=O)N[C@@H](CCC(=O)O)C(=O)N[C@@H](Cc1c[nH]cn1)C(=O)N[C@@H](CCC(N)=O)C(=O)N[C@@H](CCCNC(=N)N)C(=O)N[C@H](C(=O)N[C@@H](CCC(N)=O)C(=O)N[C@H](C(=O)N[C@@H](CCCNC(=N)N)C(=O)N1CCC[C@H]1C(=O)N1CCC[C@H]1C(=O)N[C@@H](Cc1c[nH]cn1)C(=O)N[C@@H](CCCCN)C(=O)N[C@@H](C)C(=O)N1CCC[C@H]1C(=O)N[C@@H](Cc1c[nH]cn1)C(=O)N[C@H](C(=O)N[C@H](C(=O)O)C(C)C)C(C)C)C(C)C)C(C)C", "system": "mouse, plasma", "setting": "intraperitoneal, 1.2 mg/kg", "Tmax [min]": 5}
{"SMILES": "CC(C)[C@H]1NC(=O)C[C@H]2/C=C/CCSSC[C@@H](NC1=O)C(=O)N[C@H](Cc1cccc3ccccc13)C(=O)NCC(=O)O2", "system": "nude mouse, blood", "setting": "intraperitoneal, 4 mg/kg", "Tmax [min]": 15}
{"SMILES": "O=c1cc(-c2ccccc2)oc2c(Br)c(O)c(O)c(O)c12", "system": "C57BL/6 mouse, plasma", "setting": "oral, 150 mg/kg, single dose", "Tmax [min]": 60}
{"SMILES": "C/C(=N\\OCCCN1CCCCC1)c1ccc(C(F)(F)F)cc1", "system": "mouse, plasma", "setting": "oral, 10 mg/kg", "Tmax [min]": 45}
{"SMILES": "CCCCCCCC(=O)OC[C@H](NC(=O)[C@H](CO)NC(=O)CN)C(=O)N[C@@H](Cc1ccccc1)C(=O)N[C@@H](CC(C)C)C(=O)N[C@@H](CO)C(=O)N1CCC[C@H]1C(=O)N[C@@H](CCC(=O)O)C(=O)N[C@@H](Cc1cnc[nH]1)C(=O)N[C@@H](CCC(N)=O)C(=O)N[C@@H](CCCNC(=N)N)C(=O)N[C@H](C(=O)N[C@@H](CCC(N)=O)C(=O)N[C@@H](CCC(N)=O)C(=O)N[C@@H](CCCNC(=N)N)C(=O)N[C@@H](CCCCN)C(=O)N[C@@H](CCC(=O)O)C(=O)N[C@@H](CO)C(=O)N[C@@H](CCCCN)C(=O)N[C@@H](CCCCN)C(=O)N1CCC[C@H]1C(=O)N1CCC[C@H]1C(=O)N[C@@H](C)C(=O)N[C@@H](CCCCN)C(=O)N[C@@H](CC(C)C)C(=O)N[C@@H](CCC(N)=O)C(=O)N1CCC[C@H]1C(=O)N[C@@H](CCCNC(=N)N)C(=O)O)C(C)C", "system": "mouse, plasma", "setting": "intraperitoneal, 1.2 mg/kg", "Tmax [min]": 5}
{"SMILES": "CC[C@H](C)[C@@H]1NC(=O)[C@H](Cc2ccc(O)cc2)NC(=O)[C@@H](N)CSSC[C@@H](C(=O)NCC(=O)N[C@@H](CCCCNC(=O)COCCOCCNC(=O)COCCOCCNC(=O)CC[C@H](NC(=O)CC[C@H](NC(=O)CCCCCCCCCCCCCCCCC(=O)O)C(=O)O)C(=O)O)C(=O)NCC(N)=O)NC(=O)[C@H](CC(N)=O)NC(=O)[C@H](CCC(N)=O)NC1=O", "system": "C57BL/6 mouse, plasma", "setting": "intraperitoneal, 1 mg/kg, single dose", "Tmax [min]": "60 to 240"}
{"SMILES": "COc1ccc(F)cc1S(=O)(=O)Nc1cnc2c(c1)C(=O)NCCO2", "system": "male C57BL/6 mouse, plasma", "setting": "oral, 1 mg/kg, single dose", "Tmax [min]": 60}
